# Measured values from different studies.
# Numbered parts are unrelated; each lists some results of a single study.

# Study 1
# Target: Histone acetyltransferase KAT6A, both winged helices, GST fusion (KAT6A, Homo sapiens, UniProt Q92794, residues 1-181)
# Technique: protein binding microarray
# Form: double-stranded DNA, one strand shown
# Sample: in vitro
# Concentration: not given
# Notes: 8-mer, flanks averaged, mean of 2 arrays, mostly near background
# Reference: not given
# Direction: higher = stronger binding
# Construct (chain): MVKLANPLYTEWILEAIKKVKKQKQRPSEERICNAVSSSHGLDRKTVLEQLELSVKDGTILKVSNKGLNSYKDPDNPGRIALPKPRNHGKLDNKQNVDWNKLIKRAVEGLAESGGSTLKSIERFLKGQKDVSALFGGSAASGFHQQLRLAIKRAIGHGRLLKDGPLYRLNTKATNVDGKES
Strand,E-score
CAACCGCA,0.158
CGACCAAA,-0.0451
CATCGCAG,0.0422
ACCCACCG,0.0748
CGTGACAA,0.0264
ATTTTACA,-0.0473
GTCCAGTA,-0.146
AACGACTA,0.00715
CTTGACAC,-0.0106
AGGTCCAT,-0.191
GAGAGGGC,0.0164
GCACAGGA,0.0457
GACTGCTA,-0.177
AAGACAAC,-0.0722
CCAAGGTA,-0.103
ACGGAGGC,0.183
ACAAGGGT,0.0751
ACCCTATG,-0.253
GGCGGCAC,0.231
ACTCTGAC,-0.0461
CGTAGAGC,0.0604
TAAAAATA,-0.183
CACCATTA,-0.041
AGACCTCG,0.0648
CAAAATTG,-0.201

# Study 2
# Target: RING finger protein unkempt homolog, zinc fingers 1-6, GST-SBP tag (UNK, Homo sapiens, UniProt Q9C0B0, residues 30-357)
# Sequence of UniProt Q9C0B0 (30-357, looked up): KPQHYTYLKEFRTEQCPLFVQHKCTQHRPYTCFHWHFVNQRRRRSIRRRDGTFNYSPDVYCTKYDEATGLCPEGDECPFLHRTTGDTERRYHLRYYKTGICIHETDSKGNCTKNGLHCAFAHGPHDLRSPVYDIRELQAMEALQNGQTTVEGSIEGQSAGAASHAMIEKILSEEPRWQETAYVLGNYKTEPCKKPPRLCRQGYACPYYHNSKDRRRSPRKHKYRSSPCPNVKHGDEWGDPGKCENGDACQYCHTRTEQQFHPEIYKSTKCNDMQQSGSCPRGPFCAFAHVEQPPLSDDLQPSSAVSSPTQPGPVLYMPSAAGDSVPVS
# Technique: RNA Bind-n-Seq
# Form: RNA
# Sample: in vitro
# Concentration: not given
# Notes: RNA with constant flanks, human and mouse sites, ends assumed
# Reference: input RNA pool
# Direction: higher = stronger binding
Strand,bound/input enrichment [ratio]
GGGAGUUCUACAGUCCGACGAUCUACAUUGUAGUCAGCUACUUUUCAGAGCUUUUCCAUUUGCUGUCUCAGGGAAAUCGUAAGACUAGGAAUCUUGUUUUGAAAGUAUUUUUGAAUAUGUCUGAAAAUCCCAAGGCAGCCAGACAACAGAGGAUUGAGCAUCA,0.349
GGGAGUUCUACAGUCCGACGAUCGGUCCCUGGGGAGCUCAGCACCCACCUAUAUCCCUGCCAGUUCCUGAAGGUCUUUCCACUCCUGUUCAUUUCUGUUCUGAUGUCUCUUUCCUCACACUGACCUCCCCUAUAAAAACACACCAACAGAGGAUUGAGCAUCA,1.11
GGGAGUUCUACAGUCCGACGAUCGAUUAAUACUUCUUGAAUGAUAAAAUCAUUUUGCCAUGUUAGAAGACAUUUCCGAAGAAGACAUUUGGGAAUACAAAUCUAAAAGAAAACCAAAACGAGUUGAUCCAAAUAAUGGCUCUACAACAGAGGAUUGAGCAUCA,0.179
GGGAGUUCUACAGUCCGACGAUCUUCUCCAAUGUUACGCUCGCUUGCCUAGCUUUACGAAUAUUGCUUUGUUUUCUGUUUAUGCAUAGCCUUGAUUUGUUUGACUCCCCUCCCCCCAUUUACAUGCAUGCAAUCAGACAGGCCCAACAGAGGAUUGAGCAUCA,2.15
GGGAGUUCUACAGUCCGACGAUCGAAUUUGCCUAUACUUCUGUACUAAGUUUUGAUUUCUGUAGCAUGGCUGAUGUAGCCAUCUUAGCUCGUCAUCUUUUCAUGUCAGAAGUCUUAGAGAUUUGUGAAAGUGUACAUAAGCUACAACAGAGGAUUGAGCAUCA,0.297
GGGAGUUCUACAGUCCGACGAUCGUGAACAUAACCAAAGGCAGGGGCGACAGAUCAUCUCUGAAAGUGGUGAAGGCAGCAGCCCAGGUCUUGAAUACAUUAUGGCAAUAUCGGGACCUCCGGAGCAUUUAUAAAAAGGAUGGGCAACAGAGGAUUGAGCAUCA,0.232
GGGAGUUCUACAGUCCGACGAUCUCUUCAUUGAGUUUGUCAAUAGGACAUUGAUGCUGGAUAGGUUGUCUUUUGUUUUUAUGUCUCAGACCAUCUUGUGAGAUUGUUUGCCUAUCUCAUAAUACAGUUUUAUGCAGAAAGGUUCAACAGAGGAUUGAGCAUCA,0.42
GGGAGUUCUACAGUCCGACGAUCGUGCUGACUUGGGAUUUUUAACCUUAUAUAUCUUUUUCCUUUAUUCAAAACAAAACAAUUUUUAGCACACUGAAAAAAAAAAAAGCCAAAUGUUUUGUGCCUUUCUAAGGCAGCGCUGUACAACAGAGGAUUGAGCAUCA,6.02
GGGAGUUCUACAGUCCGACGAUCUUUUUUGUGAACAAGAUUUUGCCACAGUAUCGUGAUGCAGUCAUGUCUCACACGCUCAUCUAUAUCCCCUCCUACUUUGACUUCGUGCGUCUUCGAAAUUACUUCAAGAAGGAGGAAUUGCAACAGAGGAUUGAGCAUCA,0.22
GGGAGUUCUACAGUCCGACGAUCCCGGCGCGCGCGCGCGGGAUCCACGGGGGGCGGCGGCGUCCCCUCACCCGGCUCCUCCUGCGGCGCGGCGGGCUGUGCGGACAUGGCCGCGGCGGUGGCGGUGGCGGCCGCCUCUCGGCGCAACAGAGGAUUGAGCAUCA,1.32
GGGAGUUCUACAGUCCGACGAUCUGUUUUGUUAUUGCCUGGAUAUAUGGAGGUGAUAACCUUUAUGAUGGUAUUGAGGACAUGAUUGGCUAUCGGCCCGGGCCCUGGAUGAAGUACAGCUGGGCUGUGAUCACUCCAGUUCUCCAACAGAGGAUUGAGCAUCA,0.109

# Study 3
# Target: RNA binding protein fox-1 homolog 2, RRM domain, GST-SBP tag (RBFOX2, Homo sapiens, UniProt O43251-10, residues 100-194)
# Technique: RNA Bind-n-Seq
# Form: RNA
# Sample: in vitro
# Concentration: 365 nM
# Notes: natural RNA segment, single round, ends assumed
# Reference: no-protein control
# Direction: higher = stronger binding
# Construct (chain): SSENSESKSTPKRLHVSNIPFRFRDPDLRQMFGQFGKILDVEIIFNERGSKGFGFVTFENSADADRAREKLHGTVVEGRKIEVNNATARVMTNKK
Strand,RBNS enrichment (R)
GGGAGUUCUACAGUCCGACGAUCUUGACCUGAUGAGGGACAGAGCUUGGUUGGAUGACCCGGGAGAAGUCAGGGCAGGGCUCCAGGGGAUAACAGGUGUCCUGCUUCUCCUUUGGCAAUGCAAAAUGACUCCUUGGAAUUCUCGGGUGCCAA,0.795
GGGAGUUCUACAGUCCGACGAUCUCUGGAGCUAGUCAGUGUCCUAGACCACCAGGACCUCUACUCAUUCAUGAGUUAGUUAUGCAGCAAGUCCCUAUAUACCUAGAAAUGCUCUUGUCAGAAGUGUCACUGCCUGGAAUUCUCGGGUGCCAA,0.3
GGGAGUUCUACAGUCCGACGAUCCAGGCAGGAGCCCACCCAUAGUUCUCUUCCCUAUGACGACUUCCCCAGAUAGCAUUAGCCACCCUGGGGGGCAGGGGGGGAAGAAUCCGGCUGUGGGGUAUCCACCUCGCUGGAAUUCUCGGGUGCCAA,0.338
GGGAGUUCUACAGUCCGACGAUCUCUCUGGCUGGCCGCCUGCGUCCCAGAGCACCAGAGUCCCUUCCCGACAGGCUAGGGUUAGGCAAUGUACCACAGGCCUGAUAGUCCCUGGCUCCUAGCUGCCCAUAGGCUGGAAUUCUCGGGUGCCAA,0.579
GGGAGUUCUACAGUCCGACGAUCGGAGCCUCUGCACCCAGGGAAAAUGUUACCCUUUACAGGGGGGAAGGGUAAACCAGUAGGGAAUACAGUACAAUCCCAACCCUACUGGGAGGGGCGGGAGGGAGGUGUUGUGGAAUUCUCGGGUGCCAA,1.03
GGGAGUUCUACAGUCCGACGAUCUAACUUUGAAGUCUUGUAUGAUUUAAUUAUGUUUAAUGAGUUAGAAUGGUUUGCUUUGUAUUACAGAACCACUUAUUUGUAUACUGCAGACAGCUCUAGAGUGGCACUGGUGGAAUUCUCGGGUGCCAA,0.897
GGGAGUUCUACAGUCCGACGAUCCAAAACCAUACUUAGUCAUCACCAACAAGCUGGACUGCUUAGCUGGGCUGUUUUAUCUUCCCUGAGUGCCUGGGUCUCCCUCCCUCACUUCUGCCCUUUCCCUUCCUCCUUGGAAUUCUCGGGUGCCAA,0.449
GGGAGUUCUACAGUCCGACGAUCGCAAAUUAUUCUUUUUCCAGAAUUUCCCCCAAACAACUUAGAAUUCCAUAAGUAGAACAAGAUAGAUUCUACCCCCAAAAUAUUCAUAAGCAAAUCCCACUGCCCUUAAAUGGAAUUCUCGGGUGCCAA,1.01
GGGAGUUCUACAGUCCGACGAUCUCAUCCCAGCACACUUCUAAUAGACCCCUUCAGUCACGGAGGGAGUGCCCCAAGGUUGGACAGGCACAUUCCCCUUGGACAGAGACUGCAAGUUGUGGCUUAUUUUCCUGUGGAAUUCUCGGGUGCCAA,0.83
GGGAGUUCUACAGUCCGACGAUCAUCUGUAAGAUUGUAUGCUGUAUAUACCGUUCUAUUGAGAAACAUGUACACAUGUCUGUCUACUGUGCUUUCAGACAUAGAUAAAGCAUGAUAAAGAUUAUUAUUUAAGAUGGAAUUCUCGGGUGCCAA,12.6
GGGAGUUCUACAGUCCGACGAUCGGGCCAGACAGCAGCUCCCUGUCAGACGGCCAACAAGAGUUCUCUGGAAUGCUUGUGAGUCCGUUCCCACAGGCUCACAGUGUCAGGAGAGAGUGGCAGAUGCUCCAGUUUGGAAUUCUCGGGUGCCAA,0.392
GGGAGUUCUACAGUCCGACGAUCAAAAAUGGGGCCACCUCUUGCCAGCAGUAGCAGGGCUGCCCAUGCCCCUUCCUCCCCAUGCCCCAUAUCCAGCCCUGGGCUCCUGUGCCUCUGUUUUGCUGGGUCUGUGGUGGAAUUCUCGGGUGCCAA,0.452

# Study 4
# Target: Ras GTPase-activating protein-binding protein 1, full length (G3BP1, Homo sapiens, UniProt Q13283)
# Sequence of UniProt Q13283 (whole entry, looked up): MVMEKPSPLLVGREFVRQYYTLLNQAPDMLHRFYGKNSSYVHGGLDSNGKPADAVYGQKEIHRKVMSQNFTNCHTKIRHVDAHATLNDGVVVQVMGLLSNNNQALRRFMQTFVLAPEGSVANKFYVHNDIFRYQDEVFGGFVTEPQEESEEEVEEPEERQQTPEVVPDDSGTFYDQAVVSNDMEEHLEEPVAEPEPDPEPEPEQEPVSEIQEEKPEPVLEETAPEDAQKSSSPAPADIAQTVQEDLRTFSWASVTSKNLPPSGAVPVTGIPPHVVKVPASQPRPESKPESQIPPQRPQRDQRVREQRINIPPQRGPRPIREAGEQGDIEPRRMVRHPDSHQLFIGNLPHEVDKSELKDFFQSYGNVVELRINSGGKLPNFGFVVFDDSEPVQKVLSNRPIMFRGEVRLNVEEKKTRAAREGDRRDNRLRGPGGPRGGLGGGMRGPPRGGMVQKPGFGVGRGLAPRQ
# Technique: RNA Bind-n-Seq
# Form: RNA
# Sample: in vitro
# Concentration: 200 nM
# Notes: whole 134-nt RNA, ends assumed
# With: 150 mM KCl
# Reference: input library
# Direction: higher = stronger binding
Strand,log2 enrichment
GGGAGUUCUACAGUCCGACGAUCUCAAGUCCUGUGCUACACAUCGUAUGUACCGAAUCGGGGUUUGGUUUGGGUUUGGAAAGUAUUAUGUUACGCCGUUCGGAUCUGCACUUCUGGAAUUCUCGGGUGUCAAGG,-0.422
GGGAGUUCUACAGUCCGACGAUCUGGCCCUGGUGGCAUGCGGGGAGGAAGAGGUGGCCUCAUGGAUCGUGGUGGUCCCGGUGGAAUGUUCAGAGGUGGCCGUAGUGGAGACAGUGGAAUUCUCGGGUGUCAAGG,0.0401
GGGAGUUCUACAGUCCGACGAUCACCAUACUUGACAACUUCUGAUUGAAUGCCCAUGCCCAAUGCCAACAUCCACGAACGCCAAUGACCAAUGCAGUACAAUGCCAGUGUUUCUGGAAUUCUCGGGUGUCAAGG,-0.195
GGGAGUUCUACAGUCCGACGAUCUGGCCCUGGUGGCAUGCGGGGAGGAAGAGGUGGCCUCAUGGAUCGUGAUGGUCCCGGUGGAAUGUUCAGAGGUGGCCGUGGUGGAGACAGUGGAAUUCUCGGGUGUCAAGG,0.0537
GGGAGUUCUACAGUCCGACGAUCUCCUGUGCUACACAUCGUAUGUACCGAAUCGGGUUUUUUUGGGAAAGGGUUUUUUUGGGAAAGUAUUAUGUUACGCCGUUCGGAUCUGCAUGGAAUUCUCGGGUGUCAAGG,-0.408
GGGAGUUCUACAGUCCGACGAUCCACAGACAACACGCACCCACACAGACACAGAGGGAAGGGGUUGGGAUGGGGACAGGGUGCACAGCAGGGCGGGGUAGCACCCCAGCCCCUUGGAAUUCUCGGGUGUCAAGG,1.92
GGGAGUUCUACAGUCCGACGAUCUGGCAGGUGGAUUUUGUUUAUUUUUUUAGCUCAUUUCCAGGGGUGGGAAUUUUUUUUUAAUAUGUGUCAUGAAUAAAGUUGUUUUUGAAAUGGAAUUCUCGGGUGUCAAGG,-0.17
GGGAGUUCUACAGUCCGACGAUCCUGUGCUACACAUCGUAUGUACCGAAUCGGGGAAAAAGGGGAAAAAGGGGAAAAAAAGGGGAAAGUAUUAUGUUACGCCGUUCGGAUCUGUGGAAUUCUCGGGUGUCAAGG,-0.212
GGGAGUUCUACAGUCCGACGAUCCCUGUGCUACACAUCGUAUGUACCGAAUCGGGGUUUUUUGGUUUUUUGGGUUUUUUGGGGAAAGUAUUAUGUUACGCCGUUCGGAUCUGCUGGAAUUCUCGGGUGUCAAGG,-0.835
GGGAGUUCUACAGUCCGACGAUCUGGCCCUGGUGGCAUGCGGGGAGGAAGAGGUGGCCUCAUGGAUCGUGGUGGUCCCGGUGGAAUGUUCAGAGGUGGCCGUGGUGGUGACAGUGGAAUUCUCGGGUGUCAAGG,0.127
